Measured values gathered from unrelated publications.
Protocols differ between the studies behind these lines.
CDK17: Cyclin-dependent kinase 17 (CDK17, Homo sapiens, UniProt Q00537)
PARP1: Poly [ADP-ribose] polymerase 1 (PARP1, Homo sapiens, UniProt P09874)

CC(C)(C)c1cnc(CSc2cnc(NC(=O)C3CCN(CC(=O)NCCOCCOCCOCCNc4cccc5c4C(=O)N(C4CCC(=O)NC4=O)C5=O)CC3)s2)o1 (stereo not drawn)  inhibition (CDK17; probe labeling, KiNativ live-cell profiling; MOLT-4 CRBN knockout; 0.25 µM): 23.7%
O=C1CCCc2ccccc2N1  inhibition (PARP1; enzyme activity, inhibitor; 10 µM): 2%
CC1=C(/C=C/C(C)=C/C=C/C(C)=C/C(=O)C(Cl)Cl)C(C)(C)CCC1  inhibition (Retinal dehydrogenase 2 (Gallus gallus, UniProt O93344); enzyme activity, HPLC of retinoic acid; choroid cytosol (chick); 0.10 to 6 µM, 20 min preincubation, 37 °C, 4-day recovering eyes; reference: vehicle): 70 to 96%
CN(C)c1ccc(C(=C2C=CC(=[N+](C)C)C=C2)c2ccc(N(C)C)cc2)cc1  inhibition (Cell division cycle 7-related protein kinase, with DBF4 (CDC7, Homo sapiens, UniProt O00311); kinase activity, scintillation proximity; 10 µM, 1% DMSO, with: Dbf4): > 30%
CN(C)C/C=C/C(=O)Nc1cccc(C(=O)Nc2ccc(Nc3nccc(-c4c(-c5ccccc5)nn5ccccc45)n3)cc2)c1  inhibition (Phosphatidylinositol 3-kinase catalytic subunit type 3 (PIK3C3, Homo sapiens, UniProt Q8NEB9); ATP-biotin probe labeling, KiNativ; A-375; 1 µM, 3 h, first of two sites): 8.9%
O=C1NCC(c2ccccc2)C(O)c2ccccc21 (racemic)  inhibition (PARP1; enzyme activity, inhibitor; 10 µM): 3%
Cc1cc(NC(=O)c2cccc(NC(=O)/C=C/CN(C)C)c2)ccc1Nc1nccc(-c2cccnc2)n1  inhibition (DNA-dependent protein kinase catalytic subunit (PRKDC, Homo sapiens, UniProt P78527); ATP-biotin probe labeling, KiNativ; A-375; 1 µM, 3 h, second of two sites): 10.5%
O=C1CCNC(=O)c2cc(Cl)c(Cl)cc21  inhibition (PARP1; enzyme activity, inhibitor; 10 µM): 0%
Cc1c(Nc2nccc3cc(CN4CC[C@@H](O)C4)cnc23)cccc1-c1cccc(-c2nc3cc(CN4CC[C@@H](C(=O)O)C4)cc(C#N)c3o2)c1C  inhibition (Programmed cell death 1 ligand 1 (CD274, Homo sapiens, UniProt Q9NZQ7); unoccupied cell-surface PD-L1; BALB/c nu/nu mice, MDA-MB-231 xenograft, tumour; 150 mg/kg single dose, 24 h): 78%
C[C@@]12OC(=O)[C@]1([C@@H](O)[C@@H]1C=CCCC1)NC(=O)[C@@H]2CCCl  inhibition (Proteasome subunit beta type-6 (PSMB6, Homo sapiens, UniProt P28072); caspase-like proteasome activity; CB-17 SCID mice, MM1.S xenograft, tumour; intravenous, 0.15 mg/kg single, 24 h): 49%
O=C(Nc1c(F)cccc1Cl)c1cnc(Nc2ccc(N3CCOCC3)cc2)nc1NCC1CCCO1 (stereo not drawn)  inhibition (Activated CDC42 kinase 1, Tyr284 phosphorylation (TNK2, Homo sapiens, UniProt Q07912); Tyr284 autophosphorylation, inhibitor, immunoblotting; LAPC4; 5 µM, 16 h, with: EGF; negative means increased phosphorylation): -32.6%
CC(C)(C)c1cnc(CSc2cnc(NC(=O)C3CCNCC3)s2)o1  inhibition (CDK17; probe labeling, KiNativ live-cell profiling; MOLT-4; 0.25 µM): 70.9%
Cc1ccc(-n2sc(=O)n(Cc3ccc(F)cc3)c2=O)cc1  inhibition (Regulator of G-protein signaling 8 (Homo sapiens, UniProt P57771); Gα binding, irreversible inhibitor, FCPIA after washing; 20 µM, over 30 min, with: Gαo): ~50%
COc1ccccc1C1CC(c2ccc(F)cc2O)=NN1c1ccc(S(N)(=O)=O)cc1 (stereo not drawn)  inhibition (Carbonic anhydrase 9 (CA9, Homo sapiens, UniProt Q16790); enzyme activity, inhibitor; 1 mM): 27%
O=C(O)CN1C(=O)c2ccc(Oc3ccc([N+](=O)[O-])cc3)cc2C1=O  inhibition (Lysophosphatidic acid receptor 3 (LPAR3, Homo sapiens, UniProt Q9UBY5); Ca2+ mobilization, antagonist; 10 µM, with: LPA 200 nM): < 10%
O=C1NCC(c2ccccn2)C(=O)c2cc(Cl)c(Cl)cc21 (racemic)  inhibition (PARP1; enzyme activity, inhibitor; 10 µM): 0%
lepirudin  inhibition (Prothrombin (F2, Homo sapiens, UniProt P00734); concentration not given): > 90%
CC(CN(C)C)C(Oc1cccc2ccccc12)c1cccs1 (stereo not drawn)  inhibition (Voltage-gated potassium channel, KQT; KCNQ2(Kv7.2)/KCNQ3(Kv7.3) (KCNQ3/KCNQ2, Homo sapiens, UniProt O43525+O43526); steady-state current, perforated patch clamp; HEK293; 10 µM, -30 mV): ~55%

A few entries again:
O=C1NCC(c2ccccn2)C(=O)c2cc(Cl)c(Cl)cc21 (racemic)  inhibition (PARP1; enzyme activity, inhibitor; 10 µM): 0%
O=C1CCNC(=O)c2cc(Cl)c(Cl)cc21  inhibition (PARP1; enzyme activity, inhibitor; 10 µM): 0%
